Experimental data collected from several papers.
A part holds a random share of what one study measured. Positions count from the first letter of the parent shown.

Series 1 — method: DHFR PCA, deep sequencing; medium: yeast; with: (+)-ABA 1.4 µM; baseline: wild-type fitted maximum; reading: higher = stronger binding; quantity: relative binding score
Target: ABI1, truncated, D143A, DHFR fusion (Arabidopsis thaliana)
Setting: methotrexate growth selection, single substitutions
Starting sequence: PYL1, truncated, DHFR fusion (Arabidopsis thaliana); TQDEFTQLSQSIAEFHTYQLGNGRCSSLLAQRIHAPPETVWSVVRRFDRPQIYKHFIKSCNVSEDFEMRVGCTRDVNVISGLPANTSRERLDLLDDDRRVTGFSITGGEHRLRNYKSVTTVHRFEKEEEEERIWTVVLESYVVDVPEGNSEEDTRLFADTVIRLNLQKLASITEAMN; partner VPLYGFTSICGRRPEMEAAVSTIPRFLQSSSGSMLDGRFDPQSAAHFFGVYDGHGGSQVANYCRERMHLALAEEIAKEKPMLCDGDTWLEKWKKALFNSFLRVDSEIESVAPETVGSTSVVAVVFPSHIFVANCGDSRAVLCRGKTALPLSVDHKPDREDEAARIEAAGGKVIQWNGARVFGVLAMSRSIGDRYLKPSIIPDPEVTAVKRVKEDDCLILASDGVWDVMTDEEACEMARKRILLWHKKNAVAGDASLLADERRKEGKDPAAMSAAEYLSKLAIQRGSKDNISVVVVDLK
E151W: 8.67%
R132S: 84.7%
Q7P: 31.2%
Q2T: 62.2%
T135N: -3.26%
P36I: 4.67%
S11I: 51.9%
W134D: 52.3%
G71P: -4.97%
D97A: 62.3%
A175W: 19.7%
N85R: 83.1%
F66L: 15.9%
L166N: -22.1%
E131K: 72.2%
I79K: 29.1%
G71I: 0.248%
L164P: 24.9%
E89P: 1.03%
T106V: 94.9%
E89R: 6.19%
P50A: -7.63%
D144T: 2.83%
H34Y: 36.3%
S63Y: 4.78%

Series 2 — method: RNA Bind-n-Seq; form: RNA; medium: in vitro; concentration: 365 nM; baseline: no-protein control; reading: higher = stronger binding; quantity: RBNS enrichment (R)
Target: RNA binding protein fox-1 homolog 2, RRM domain, GST-SBP tag (RBFOX2, Homo sapiens, UniProt O43251-10, residues 100-194)
Setting: natural RNA segment, single round, ends assumed
Residues (chain): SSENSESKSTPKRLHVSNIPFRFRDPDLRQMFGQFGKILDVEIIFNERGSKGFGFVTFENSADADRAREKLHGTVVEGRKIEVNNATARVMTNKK
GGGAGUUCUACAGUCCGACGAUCCUGAGUUUAAUUUAAUAUGUAAUACAUAUGGUAAUUGUAGGGUAAUACCCACAACAACUGUAGUUUCUUACUUGGCCAAGAGAAUGCUUAUUUAAGUGUUAGACUUCCAUUGGAAUUCUCGGGUGCCAA: 0.22
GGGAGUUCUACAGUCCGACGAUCAACUGAAGCCAAAAAUGAAGCCGUGGCCAAGCGUGACCCAGAGAUGGGGUGUCCUGGCCCUUAGUGACACAGCUCCUCUCUGGGGCACCCUAUCUGCUUGUCUCGUCCAGUGGAAUUCUCGGGUGCCAA: 0.334
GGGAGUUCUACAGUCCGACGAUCGUGAAUUUUAACAAAUAUGACACAGAAAAGGUCAGAUGCUGUUGUAUAAAAUUUUUUACUAGUGUGUCUUAUAUAAUUCUUUCUUCUCAUUAAUUCAGUGCCUUUUUCCUUGGAAUUCUCGGGUGCCAA: 0.854
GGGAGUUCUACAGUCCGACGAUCCGACAUGUGGCAGACACACAGUAAAUAAUGGCUGACCAGCAUGAGGGCAGUACUGUCAGAAAUUUCUUUGAGCUGUGAGAUGGAUUUAUUUUUAAAUGCUACUUUGUAAAUGGAAUUCUCGGGUGCCAA: 8.47
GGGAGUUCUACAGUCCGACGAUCUCCACCAGAGCUCCUGCCUGCCAGGACUGGACCAGAGCAGCCAGGCUGGGGCCCCUCUGUCUCAACCCGCAGACCCUUGACUGAAUGAGAGAGGCCAGAGGAUGCUCCCCUGGAAUUCUCGGGUGCCAA: 0.413
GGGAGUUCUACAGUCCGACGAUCAAACAUGACCCUGGGCUUCUGUACCACACUAGAAUUCAUGUGAGAAAGCUAAAAUGGUGGUCUUCUCCACCAGCCCCUCACAGGCUUGGGGGUUUUCAAUGUGAAACACAUGGAAUUCUCGGGUGCCAA: 0.241
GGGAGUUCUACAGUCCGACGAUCACCUUAUUGGAUAUUUGAUAUUUGGUUAUUUAAUCACAGUCAUCUUUAACAGCUUACACUGAUUGGUGUUUUAUCUCCUGUGAUCCUUUGAUGGCUUUUUUUGCCUACCAUGGAAUUCUCGGGUGCCAA: 0.334
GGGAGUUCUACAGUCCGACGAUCCUGGAAUCAAUUGAAAUAAGAGGACUCAAGGUUUGUUCUAAUGAAGUUUGUCAAAUUACUCUUUGGAAUUGAGCCAAAAUCCUAGAGUUGAGUUUUUAUUCUUCCUUCCUUGGAAUUCUCGGGUGCCAA: 0.401
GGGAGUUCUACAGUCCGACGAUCUCACAUUUAAGACUUCUAAAAUGGAAUAAUAGCCUUUUGUUUUUCAUGAGCAUAUUCGCACCCCUAUAUGAAUUACAGCAUUUAAAGUUCAAAAUCAGUAACUUUUAAUCUGGAAUUCUCGGGUGCCAA: 0.944
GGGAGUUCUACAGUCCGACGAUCGCAUUUUCAGUAUAUGAGGAGCUGAGAAAGCGCUGCCUGUCUGGUCCUUCAUUUGGCCAGCUAACAUUCUGUCGAGCACCUGCAUUGUGCUGGAUUCAUGCUUCCAGAUGUGGAAUUCUCGGGUGCCAA: 0.873
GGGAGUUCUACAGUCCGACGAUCAAAAUAGAUACCAUGGUUUGUGCAAUUAUGUAGUAAAAAAGGCAAAUCUUUUCACCUCUGGCUAUUCCUGAGACCCCAGGAAGUCAGGAAAAGCCUUUCAGCUCACCCAUUGGAAUUCUCGGGUGCCAA: 0.518
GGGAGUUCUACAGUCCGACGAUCGGCAUGACAUCUAAAAGCUCACUGCCUAUGCAGGGCUCACUCCCCACCAUCCGGAUGGCCUCCCACAGGCCCUCCAGCCUCAAUCCUCCGUGCUUCCUUUUUUCCUUUCCUGGAAUUCUCGGGUGCCAA: 0.247

Series 3 — target: CREBL2, bZIP domain (human); method: DHFR protein complementation; medium: yeast; baseline: wild-type JUN-FOS pair; reading: higher = stronger binding; quantity: binding fitness
Setting: single substitutions, most at no-binding floor
Starting sequence: JUN, bZIP domain (human); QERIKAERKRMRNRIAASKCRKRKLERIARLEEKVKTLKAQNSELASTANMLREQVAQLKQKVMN; partner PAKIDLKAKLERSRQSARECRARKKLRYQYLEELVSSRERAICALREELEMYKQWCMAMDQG
A29D: -1.54 natural log
I28R: -1.45 natural log
Q55L: -1.57 natural log
V56R: -1.54 natural log
K39I: -1.43 natural log
L31I: -1.45 natural log
A40C: -1.32 natural log
L38Q: -1.53 natural log
T37Y: -1.59 natural log
L52C: -1.43 natural log
L31A: -1.54 natural log
S43C: -1.52 natural log
Q58A: -1.18 natural log
E33C: -1.38 natural log
K39E: -1.44 natural log
N42L: -1.48 natural log

Series 4 — target: CCNE1, cyclin fold, Cln2 fusion (human); method: yeast growth competition, sequencing; medium: yeast; setting: strong parent motif; baseline: not given; reading: higher = stronger binding; quantity: normalised enrichment score
Starting sequence: ASZ1 docking peptide (human); GFGFLLFICKLTF; partner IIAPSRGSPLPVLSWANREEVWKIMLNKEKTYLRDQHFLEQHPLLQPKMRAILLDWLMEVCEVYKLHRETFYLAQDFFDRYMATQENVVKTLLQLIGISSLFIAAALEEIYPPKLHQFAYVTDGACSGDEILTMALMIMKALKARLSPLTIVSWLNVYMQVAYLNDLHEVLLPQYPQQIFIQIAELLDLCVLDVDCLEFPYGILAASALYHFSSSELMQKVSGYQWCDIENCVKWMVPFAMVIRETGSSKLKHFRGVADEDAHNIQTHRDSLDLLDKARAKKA
C9A: 1.68
I8A: 0.838
L5A: 0.846
G1A: 1.39
L6A: 1.1
K10A: 1.14
L11A: 1.38

Series 5 — method: EMSA with sequencing; form: double-stranded DNA, one strand shown; medium: in vitro; concentration: 10 and 20 nM; baseline: negative control set to 0; reading: higher = stronger binding; quantity: normalised bound fraction
Target: Hepatocyte nuclear factor 3-alpha (Foxa1, Mus musculus, UniProt P35582, residues 1-468, full length assumed)
Setting: whole designed probe, mean of two concentrations, ends assumed
Construct (chain): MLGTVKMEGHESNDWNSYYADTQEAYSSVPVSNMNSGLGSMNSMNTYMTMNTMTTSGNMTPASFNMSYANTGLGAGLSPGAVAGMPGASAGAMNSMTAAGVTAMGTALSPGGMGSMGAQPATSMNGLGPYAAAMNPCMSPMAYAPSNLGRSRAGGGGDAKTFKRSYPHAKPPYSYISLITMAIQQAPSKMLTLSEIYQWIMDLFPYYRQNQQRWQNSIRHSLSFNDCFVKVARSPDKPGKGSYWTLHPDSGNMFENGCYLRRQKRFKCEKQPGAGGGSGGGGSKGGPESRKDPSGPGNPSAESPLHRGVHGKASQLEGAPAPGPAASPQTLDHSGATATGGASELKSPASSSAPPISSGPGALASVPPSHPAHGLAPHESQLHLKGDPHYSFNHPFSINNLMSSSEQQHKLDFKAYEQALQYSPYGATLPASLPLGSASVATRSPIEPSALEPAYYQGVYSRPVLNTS
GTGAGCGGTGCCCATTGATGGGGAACTCCTTTATCCCAACATGTTTATACAGACAAAACCAGGTTAAAATCGACACAAGGTCAACTTGAAATGGGGAAGAGGAAGGTAGACGTCACAAAATAAACATGAAGTCTTGTGTACAAGCATCTGCAGAAGAGTTCAGCCTCACCACTTGGGTAATGCTGTTGGAATGTGGTCTGGGTTCACTGTATTTGAATGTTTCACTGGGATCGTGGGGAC: 0.379 ratio
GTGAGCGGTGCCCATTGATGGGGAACAATTTTAGGCTTTTCTACTCTCAACTTCTCTCTGAACTCAAAATTGCAGTGCACCCTCATGAATCTGAGAACAATAAGATTGGCCTAACAAAGTAAACAGGAAGAAAGAATACAATTTGGATGCAGAATATCATTCAAGAAAAACATAGTAAAAGTTATAGATAAATGTAATTACTACTCATTTGCAAAACTGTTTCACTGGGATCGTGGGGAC: 0.291 ratio
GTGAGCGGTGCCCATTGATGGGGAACTAGTGGTCTGAGTGTGTGGGAGTGGAGCTAAGCCTCCAGGACGATAGACTGTAGGACTTTGGATACTGGTTCCCAGCAAAAGATAAATGCCAAAAATTGCATTGGGTATGGGGGGAGTGAACACTTCCCACAAAGGCCTTTGTTCTTTTGCCCACAGCTTGTTACTTAGGCAACTGACAATTGAAGTTTGTGGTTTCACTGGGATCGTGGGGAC: -0.0494 ratio
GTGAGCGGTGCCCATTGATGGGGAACCTCCAGGGTAGTTGTCCTTCCTGTGGCTGCTCACTGATCCAGGCTACTTTGATCTTGTGACTCAAAGTTCAACAAAATGTGGATGCGTCATTTTATTTACACTTCAATGGCCAGAAGGCCCTTACGAAATTCATCCAGTTGCAAGAAGTTTGGGAAATGTAGCCTTCCATATTTACAGGAATAAATGAAAAACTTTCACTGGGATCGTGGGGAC: 0.376 ratio
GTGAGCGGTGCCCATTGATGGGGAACATCTTCCCCCTCTTCCTTGCCCCACCAGCTCACCTTCCCGGGTTATTTGCACAAAGGAAAATAAATAAAGCCGGCATTCGTTAACGCAGTTCTGGCGCAAACTGCTGTTTGCTCTGGATGAATCATGGTCCTTTGGCGACGCCAGGCTCCGGGAGAGCAAAGCACCGTGTCAGGGCCATGATCCGGGGTGGCCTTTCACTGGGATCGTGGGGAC: 0.369 ratio
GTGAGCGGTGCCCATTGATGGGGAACCACATGTCAGTAATAGTGCTGTATTACTGACCTAGAAATTTAATTGTTCCGTGCTCTTAAGGTTTCAGTATTAAATGTGGAAATTATTTAAGAGCAAACAAATTGATATTACTGCAGCTTCATAAAGAAGAATATCAAACTGTGGTCTCTGTTTTTTGTCTTTCAAAGCAAGAAGTGGTGGAGAAATATGAAATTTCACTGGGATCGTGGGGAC: 0.142 ratio
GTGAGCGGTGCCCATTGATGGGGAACGTGCAGCGCTCCTTCACAACACACACGTGAGCTGGGGCTGTAGCAGGTGGCCTGCCGACCAGCGTCTCCCCAACCCCCACAACATGCACTCAAAGTAATCTACAGCATTAGACAATTAGAAACCTACTTCCAGTCAACCTTACGCTCACTGAGGCCACTGCAGCACCGCCAGCCACGTCTCCAAAGCAGGCGATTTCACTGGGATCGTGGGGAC: -0.0688 ratio
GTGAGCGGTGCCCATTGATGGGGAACGTAGGGGTAATGAAAAACTTCTTGTGCAAGCGGCCATTAATCAGCAGTGTAACATTGCATAACGTGCTCCAAAGCACGACTCATGGGATCAGAGTACACAGCTGCATAATGCAGGCCAGTGTCTGTGCCTCCTGCTGACCTTTTCCAATGCAGAACTCGAACCATGTGATGCATGCTTCTTGCCAAGTCACTTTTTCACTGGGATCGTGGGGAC: -0.0284 ratio

Excerpt of the above (series 3):
L31I: -1.45 natural log
A40C: -1.32 natural log
L38Q: -1.53 natural log
T37Y: -1.59 natural log
L52C: -1.43 natural log
